Measurements collected from several papers.
Compare with care: the assays were run in different laboratories. ± gives the spread as reported.
XIAP BIR3: E3 ubiquitin-protein ligase XIAP, BIR3 (XIAP, Homo sapiens, UniProt P98170)
Sequence of UniProt P98170 (whole entry, unmodified, looked up): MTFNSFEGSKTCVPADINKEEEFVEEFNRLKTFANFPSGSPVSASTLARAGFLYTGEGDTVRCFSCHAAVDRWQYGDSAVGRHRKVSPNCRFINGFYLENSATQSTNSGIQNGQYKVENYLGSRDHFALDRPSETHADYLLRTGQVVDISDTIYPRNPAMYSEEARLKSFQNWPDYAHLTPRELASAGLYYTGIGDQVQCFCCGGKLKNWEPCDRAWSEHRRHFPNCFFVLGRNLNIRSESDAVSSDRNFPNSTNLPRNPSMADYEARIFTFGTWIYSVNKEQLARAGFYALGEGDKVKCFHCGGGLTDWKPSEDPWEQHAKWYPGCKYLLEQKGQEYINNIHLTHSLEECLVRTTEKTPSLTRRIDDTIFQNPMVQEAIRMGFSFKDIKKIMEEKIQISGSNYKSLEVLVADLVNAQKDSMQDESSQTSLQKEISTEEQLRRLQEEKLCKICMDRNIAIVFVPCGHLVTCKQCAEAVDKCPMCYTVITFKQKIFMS
XIAP BIR1 domain: E3 ubiquitin-protein ligase XIAP, BIR1 domain (XIAP, Homo sapiens, UniProt P98170)

| SMILES | target | assay | setting | endpoint | result |
| --- | --- | --- | --- | --- | --- |
| CC(C)[C@H](NC(=O)C(C)(C)N)C(=O)N1CCC[C@H]1C(=O)N[C@@H](Cc1ccccc1)C(N)=O | XIAP BIR3 | ligand displacement |  | IC50 | > 1.6 µM |
| CN[C@@H](C)C(=O)N[C@H]1CN(C(=O)Cc2ccccc2)CC[C@H]2CC[C@@H](C(=O)NCc3ccccc3Br)N2C1=O | XIAP BIR3 | ligand displacement, FP |  | Ki | 1.49 µM |
| N[C@H]1CCCCNC(=O)[C@H](Cc2ccccc2)NC(=O)[C@@H]2CCCN2C(=O)[C@@H](N)CCCCNC(=O)[C@H](Cc2ccccc2)NC(=O)[C@@H]2CCCN2C1=O | E3 ubiquitin-protein ligase XIAP, BIR2 (XIAP, Homo sapiens, UniProt P98170) | ligand displacement, FP |  | Ki | > 100 µM |
| Cc1ccc(C(=O)Nc2ccc(S(=O)(=O)O)c3cccc(S(=O)(=O)O)c23)cc1NC(=O)c1cccc([N+](=O)[O-])c1 | XIAP BIR1 domain | microscale thermophoresis | 24 °C | Kd | 525 ± 50 µM |
| CC(C)[C@H](NC(=O)[C@H](C)NCC1CCCCC1)C(=O)N1CCC[C@H]1C(=O)N[C@@H](Cc1ccccc1)C(N)=O | XIAP BIR3 | ligand displacement |  | IC50 | 2 µM |
| CN[C@@H](C)C(=O)N[C@H]1CN(C(=O)Cc2ccccc2)CC[C@H]2CC[C@@H](C(=O)NCc3ccc(-c4ccccc4)cc3)N2C1=O | XIAP BIR3 | ligand displacement, FP |  | Ki | 15.3 µM |
| CN[C@@H](C)C(=O)N[C@@H](CCCCN)C(=O)N1CCC[C@H]1C(=O)N[C@@H](Cc1ccccc1)C(=O)O | XIAP BIR3 | ligand displacement, FP |  | Ki | 0.086 µM |
| O=C(Nc1cccc(C(=O)Nc2ccc(S(=O)(=O)O)c3cc(S(=O)(=O)O)cc(S(=O)(=O)O)c23)c1)Nc1cccc(C(=O)Nc2ccc(S(=O)(=O)O)c3cc(S(=O)(=O)O)cc(S(=O)(=O)O)c23)c1 | E3 ubiquitin-protein ligase XIAP, BIR1 domain (XIAP, Homo sapiens, UniProt P98170, R82S) | microscale thermophoresis |  | Kd | 1790 ± 425 µM |
| CN[C@@H](C)C(=O)N[C@H]1CN(C(=O)Cc2ccccc2)CC[C@H]2CC[C@@H](C(=O)NCc3cccc(F)c3)N2C1=O | XIAP BIR3 | ligand displacement, FP |  | Ki | 1 µM |
| O=C(Nc1cccc(C(=O)Nc2ccc(S(=O)(=O)O)c3cccc(S(=O)(=O)O)c23)c1)Nc1cccc(C(=O)Nc2ccc(S(=O)(=O)O)c3cccc(S(=O)(=O)O)c23)c1 | XIAP BIR1 domain | microscale thermophoresis | 24 °C | Kd | 11 ± 2 µM |
| CC(C)[C@H](NC(=O)[C@H](C)N)C(=O)N1CCC[C@H]1C(=O)N(C)[C@@H](Cc1ccccc1)C(N)=O | XIAP BIR3 | ligand displacement |  | IC50 | 0.38 µM |
| CN[C@@H](C)C(=O)N[C@H]1CN(C(=O)Cc2ccccc2)CC[C@H]2CC[C@@H](C(=O)NCc3ccccc3F)N2C1=O | XIAP BIR3 | ligand displacement, FP |  | Ki | 0.532 µM |

For quick reference, copied from above:
| SMILES | target | assay | setting | endpoint | result |
| --- | --- | --- | --- | --- | --- |
| CN[C@@H](C)C(=O)N[C@H]1CN(C(=O)Cc2ccccc2)CC[C@H]2CC[C@@H](C(=O)NCc3ccccc3Br)N2C1=O | XIAP BIR3 | ligand displacement, FP |  | Ki | 1.49 µM |
